Measured values of several laboratories.
Numbered parts are unrelated; each lists some results of a single study. Changes are numbered by the printed parent chain.

Block 1 — target: CEP164, C-terminal peptide (human); technique: DHFR complementation, deep sequencing; medium: yeast; relative to: wild type; direction: higher = weaker binding; quantity: binding free energy change
Notes: single substitutions, model-inferred values
Starting sequence: PDZK1, PDZ domain 2 (human); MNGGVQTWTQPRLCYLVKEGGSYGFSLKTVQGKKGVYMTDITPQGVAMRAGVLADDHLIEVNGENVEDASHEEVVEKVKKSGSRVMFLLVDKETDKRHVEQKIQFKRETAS; partner HNRVKVYRF
E93H: -0.164 kcal/mol
E93V: -0.073 kcal/mol
R84D: 0.123 kcal/mol
N2P: -0.163 kcal/mol
G24T: 1.16 kcal/mol
G45A: 1.29 kcal/mol
L58C: -0.00861 kcal/mol
W8Y: -0.0787 kcal/mol
V5R: -0.0396 kcal/mol
E108D: -0.0883 kcal/mol
T9G: -0.0919 kcal/mol
I41R: 1.15 kcal/mol

Block 2 — technique: protein binding microarray; molecule type: double-stranded DNA, one strand shown; medium: in vitro; tested at: not given; relative to: not given; direction: higher = stronger binding; quantity: E-score
Target: Histone acetyltransferase KAT6A, both winged helices, GST fusion (KAT6A, Homo sapiens, UniProt Q92794, residues 1-181)
Notes: 8-mer, flanks averaged, mean of 2 arrays, mostly near background
Target sequence (chain): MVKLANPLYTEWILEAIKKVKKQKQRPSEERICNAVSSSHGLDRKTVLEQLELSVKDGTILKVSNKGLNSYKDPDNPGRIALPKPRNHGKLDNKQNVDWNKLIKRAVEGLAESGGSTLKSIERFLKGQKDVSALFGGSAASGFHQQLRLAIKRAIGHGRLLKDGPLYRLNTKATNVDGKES
GGGGTCCA: -0.0626
AACGAAGC: -0.0706
TAATAAGA: -0.175
AGTGGTTA: -0.244
CCTTGACG: 0.0958
CTGTGAAC: -0.00709
AGCCTCCT: -0.063
GGAGTGCC: 0.00624
TACGAGAA: 0.0166
CATTCCTA: -0.149
GAAAAAAA: -0.0576
CCTTGAGC: 0.0238
AGTAGCGG: 0.159
ACATATGC: -0.0668
GAATCTGA: -0.138
ATTACTTC: -0.159
CGCGACGA: 0.189

Block 3 — technique: protein-binding microarray; molecule type: double-stranded DNA, one strand shown; medium: in vitro; tested at: 2200 nM top; notes: 60-bp whole probe; added: salmon DNA 0.4 mg/ml; relative to: random background probes; direction: higher = stronger binding; quantity: fitted relative affinity; shared flanks, not repeated: GCCTAGCAC … GTCTTGATTCGCTTGACGCTGCTG
Target: Interferon regulatory factor 7, full length, phosphomimetic (IRF7, Homo sapiens, UniProt Q92985, residues 1-503, S471D/S472D/S475D/S476D/S477D/S483D/S484D/S487D)
Sequence of UniProt Q92985 (whole entry, unmodified, looked up): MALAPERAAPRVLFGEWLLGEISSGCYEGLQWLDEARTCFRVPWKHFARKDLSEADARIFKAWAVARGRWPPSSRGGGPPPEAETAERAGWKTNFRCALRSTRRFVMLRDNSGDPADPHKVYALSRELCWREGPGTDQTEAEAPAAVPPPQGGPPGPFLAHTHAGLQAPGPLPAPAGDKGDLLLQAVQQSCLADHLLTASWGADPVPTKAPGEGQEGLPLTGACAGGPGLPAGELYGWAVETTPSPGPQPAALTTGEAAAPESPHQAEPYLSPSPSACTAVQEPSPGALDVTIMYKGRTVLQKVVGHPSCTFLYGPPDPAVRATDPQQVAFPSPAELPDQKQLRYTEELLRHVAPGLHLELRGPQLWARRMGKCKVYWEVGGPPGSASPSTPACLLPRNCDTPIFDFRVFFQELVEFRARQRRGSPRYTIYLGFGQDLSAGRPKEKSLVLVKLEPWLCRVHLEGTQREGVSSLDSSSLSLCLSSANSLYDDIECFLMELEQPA
TCATCTTTCACTGGTCCTACTGTGCTA: 2.09 z-score
GAGGGTATCGGACTGGGGACGTGCTAG: -0.745 z-score
GACGATTTCAGTTTTGAGACGTGCTAG: 2.05 z-score
TTCGATATCAGACTGGATTAGTGCTAG: 0.527 z-score
TTACGTTTCCTTTTCCTTTAGTGCTAG: 7.9 z-score
TCAGCTCTTGTTTTCACACTGTGCTAG: 1.96 z-score
GACGGACTGGGGACTGGGGAAGTGCTA: -0.593 z-score
GACGGACTGCTTTTCCGGACGTGCTAG: 0.457 z-score
TACGATCTCAGTCTCGAGACGTGCTAG: 0.59 z-score
GACGAACTTGGGTTTCGAGACGTGCTA: 1.19 z-score
GACGGTTTCGGGTCTCGGGACGTGCTA: 8.11 z-score
CACTTTCTTTACTTCACTCTGTGCTAG: 3.87 z-score
GACGGTTTCTGGTATCGGGACGTGCTA: 2.57 z-score
GACGGTTTCCTTATCTTGACGTGCTAG: 2.67 z-score
TTAGATCTCAGAGTGGATTAGTGCTAG: -0.22 z-score
TTACGTTTCGGTTCCGGTTAGTGCTAG: 9.81 z-score
GACGGTTTCGGTATCGGGACGTGCTAG: 8.09 z-score
GACGGACCGCTTATCCTGACGTGCTAG: 0.112 z-score
CCCAAGATTGCCGTTTCCTAAGTGCTA: 0.526 z-score
TTAGAACTGCGACTGGATTAGTGCTAG: -0.374 z-score
TTAGATTTCAGTTTAGATTAGTGCTAG: 2.07 z-score
TTAGATTTCGGGTTTCGATTTGTGCTA: 9.4 z-score
GACGGTTTCGGGACTGGGAACGTGCTA: 3.61 z-score
TTAGAACTGGGGTATTGATTAGTGCTA: 0.112 z-score
GACGGACTGGGTCTCCGGACGTGCTAG: -0.926 z-score

Block 4 — technique: RNA Bind-n-Seq; molecule type: RNA; medium: in vitro; tested at: 365 nM; relative to: no-protein control; direction: higher = stronger binding; quantity: RBNS enrichment (R)
Target: RNA binding protein fox-1 homolog 2, RRM domain, GST-SBP tag (RBFOX2, Homo sapiens, UniProt O43251-10, residues 100-194)
Notes: natural RNA segment, single round, ends assumed
Shared flanks, not repeated: GGGAGUUCUACAGUCCGACGAUC … UGGAAUUCUCGGGUGCCAA
Construct (chain): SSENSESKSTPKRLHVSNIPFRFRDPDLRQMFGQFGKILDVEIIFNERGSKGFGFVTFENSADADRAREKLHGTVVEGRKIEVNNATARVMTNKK
UCCCAAGGGCUGGCUGCUUCUGAGGACACAACUGGGACAUGGUUGAGUCAGUAGACUAUUUAGAGACUCAUGUAACUUGGGGUAUGGGCAUGCCUUUAUGGGAGCAGCCA: 0.583
ACAUGGAGGUGGAGCCUGCAGCUGGAGUGAGGCGCACACUUGACUCUACUUGCAGGUGGUUUGCUGAGCAGAGAGCUGAGGGACCCUCUUGACUGGGUAGGGGUCUUGUC: 0.431
GCUUCAAACUUUAUUGCUUCGAUUUUUGUGGCCCUAUAUUUAGUAUUAGCACACCUUGGUUUUGAGAAAAAAACAGGGCUUUGUUUUUUUAAAUAAUUACUAGCAACUCU: 0.457
UCAUGGGUGCUCCUGGCAACUUGCUUGAGGAAGAUAGGUCAGAAAGCAGAGUGGACCAACCGUUCAAUGUUUUACAAGCAAAACAUACACUAAGCAUGGUCUGUAGCUAU: 1.32
CAUUUAUCAGGGAAAACUGAAAGCAUUUUUCUUAUAACUUUUUUUCUUUUUCUUUUUUUUUGGAGGGGGGAGGCAGGGUCUUGCUCUGUCCCUCAGGCUGGAGCUUAGCU: 0.337
UGAGCCGCGUCAUCUGUUUGCGCUGGGCAAGGAGCUGCACCGCUGCGUUGACCUGCCUUGUCUUACGGUACACACAGCAAUAAAGCCUGGGUUCCGCCCGGUCUCCACCC: 0.841
ACCACUCUGGUGGCCACACAGCGCCUCAGAGAGCAUUCUGGGAAGUGCCUGUUUCCGAGGAACCCUGUCUCCAGCUUGUGGCUAUCUUACUGUGUUCUGCCCAGGCACCU: 0.695
UACAAAUGAUUAUUCCGACAGUGUGUCGACAUAAACUUUUACAACUGCACAGCAGCCAAAAAAAGAAAAAAAAAAGAAAAAAAACUUUAACUGGAUGGACGUUGUUAGGG: 0.384
GAGGAGGAAGGGAAAGAGAUGUGAGGGAAGCAUUUCAUCAACCAGCUACGUCCCCCUUAGAAGGAUCACUGCAGCAGGUCACCGAGCAGGAGUCCCUCUGAGCGUCCCUU: 0.494
UCUGGAGGCCGGGGGUUCUCAGACCUACCAGUUUCCCUUUAGAAGAACAAAUUUCCAGUUCCUCUAGGGCCUCCUGCCUUUCCUUUCUUUCUGUCAAUUUUGUUGUUGUU: 0.451
CCAAGAAGUUCCCAUCAAAGACCAAGUAUGUGCCUGGCUCCUUAGGAGGGAUGACUCCUGACCACACUGUUGAAGGCUUGCUCUUGUCAAAUACUCUGUCUGCUAUGGAA: 1.47
CGACCCCCACCCUAGGGAAUGCAGAGCCUCUCCGCAUGUGUGCGCGUGGCCGUGUCUGUGUAUUUCUACGUGUGUCGCUCUUCAGAAGCAACCUAGUUCCUGGGGCAGCU: 0.55

Block 5 — technique: RNA Bind-n-Seq; molecule type: RNA; medium: in vitro; tested at: not given; notes: RNA with constant flanks, ends assumed; relative to: input RNA pool; direction: higher = stronger binding; quantity: bound/input enrichment
Target: RING finger protein unkempt homolog, zinc fingers 1-6, GST-SBP tag (UNK, Homo sapiens, UniProt Q9C0B0, residues 30-357)
Sequence of UniProt Q9C0B0 (30-357, looked up): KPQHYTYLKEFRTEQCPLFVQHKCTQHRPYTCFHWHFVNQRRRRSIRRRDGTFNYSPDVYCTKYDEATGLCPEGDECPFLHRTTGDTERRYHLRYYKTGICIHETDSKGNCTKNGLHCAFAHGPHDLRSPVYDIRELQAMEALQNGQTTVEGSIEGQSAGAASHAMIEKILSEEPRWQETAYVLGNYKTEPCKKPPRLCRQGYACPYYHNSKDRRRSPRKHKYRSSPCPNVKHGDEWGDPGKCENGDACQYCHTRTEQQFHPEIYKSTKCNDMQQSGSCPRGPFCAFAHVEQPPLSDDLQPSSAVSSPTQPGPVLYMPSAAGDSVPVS
Shared flanks, not repeated: GGGAGUUCUACAGUCCGACGAUC … CAACAGAGGAUUGAGCAUCA
UUUUCUUUUGGAGGCGGAUUGUUUGAUGAUAUGUUUGAAGACAUGGAGAAAAUGUUUUCUUUCCGUGGCUUUGAUACCACCAAUCGACACACAGUACAGACUGAAAAUAGAUUUCAUGGA: 0.144 ratio
UAUCUGAAUGACUUGGACCGUGUAGCCGACCCUUCCUAUCUGCCUACACAACAAGACGUGCUCCGAGUUCGAGUCCCCACUACAGGGAUCAUCGAAUACCCCUUUGACUUACAAAGUGUC: 0.125 ratio
AUAAACACAUUUAAAUUACUGUCAUAUGCUUCCUAUUGCAUUGAGCAUGGUGAUCUGGAGCCCGCAGCAAAGUUUGUCAAUCAGCUGAAGGGGGAAUCCAGACGAGUGGCACAGGACUGG: 0.437 ratio
UUUGAUACAGUCAAAAGUGUUCUCGACAAAGACCGAAAAGAAGAUGAUACAAAUGAAUUUGUCCGUGCUGUGUGCUGGAGGGCACUACCAGAUGGGGAGUCCAAUGUGCUGAUUGCUGCU: 0.344 ratio
UGGACUCAUGUUGGGCCUACUCCUGCAAUAACAAUUAAGGAAUCAGUUGCCAACCAUUUGCCGUUCACAAAUUAAAACUGGGUUUCCAGGCCUGGUGUGGUGGCUCACGCCUGUAGCCCC: 0.553 ratio
AGUUUUUCUGCUUCCAAAAUAUUUAUUUCUGCAUUAGCCAUGGAAGGACAGCAACUUUCCGCCGCAUAUCCUUGCGCUUUGUUAUAUGGAGUCUUUGCCCUGAUUUCCGUCUUUUGAAAA: 0.397 ratio
AGUAUAUGUAAAUGUCUGUUUUUCAUAAUUGCUCUUUAUAUUGUGUGUUAUCAGACAAGACCGUUAUUUAAGAAACAUGGGAAAUGCAGAAAUGACUGCAGUGCAGCAGUAAUUAUGGUG: 0.351 ratio

For quick reference, copied from above (block 4):
GCUUCAAACUUUAUUGCUUCGAUUUUUGUGGCCCUAUAUUUAGUAUUAGCACACCUUGGUUUUGAGAAAAAAACAGGGCUUUGUUUUUUUAAAUAAUUACUAGCAACUCU: 0.457
UCUGGAGGCCGGGGGUUCUCAGACCUACCAGUUUCCCUUUAGAAGAACAAAUUUCCAGUUCCUCUAGGGCCUCCUGCCUUUCCUUUCUUUCUGUCAAUUUUGUUGUUGUU: 0.451
CAUUUAUCAGGGAAAACUGAAAGCAUUUUUCUUAUAACUUUUUUUCUUUUUCUUUUUUUUUGGAGGGGGGAGGCAGGGUCUUGCUCUGUCCCUCAGGCUGGAGCUUAGCU: 0.337
UCAUGGGUGCUCCUGGCAACUUGCUUGAGGAAGAUAGGUCAGAAAGCAGAGUGGACCAACCGUUCAAUGUUUUACAAGCAAAACAUACACUAAGCAUGGUCUGUAGCUAU: 1.32
CGACCCCCACCCUAGGGAAUGCAGAGCCUCUCCGCAUGUGUGCGCGUGGCCGUGUCUGUGUAUUUCUACGUGUGUCGCUCUUCAGAAGCAACCUAGUUCCUGGGGCAGCU: 0.55
UGAGCCGCGUCAUCUGUUUGCGCUGGGCAAGGAGCUGCACCGCUGCGUUGACCUGCCUUGUCUUACGGUACACACAGCAAUAAAGCCUGGGUUCCGCCCGGUCUCCACCC: 0.841
ACCACUCUGGUGGCCACACAGCGCCUCAGAGAGCAUUCUGGGAAGUGCCUGUUUCCGAGGAACCCUGUCUCCAGCUUGUGGCUAUCUUACUGUGUUCUGCCCAGGCACCU: 0.695
